# Assay results gathered from unrelated publications.
# Numbered parts are unrelated; each lists some results of a single study. Changes are numbered by the printed parent chain.

# Series 1
# Target: RING finger protein unkempt homolog, zinc fingers 1-6, GST-SBP tag (UNK, Homo sapiens, UniProt Q9C0B0, residues 30-357)
# Sequence of UniProt Q9C0B0 (30-357, looked up): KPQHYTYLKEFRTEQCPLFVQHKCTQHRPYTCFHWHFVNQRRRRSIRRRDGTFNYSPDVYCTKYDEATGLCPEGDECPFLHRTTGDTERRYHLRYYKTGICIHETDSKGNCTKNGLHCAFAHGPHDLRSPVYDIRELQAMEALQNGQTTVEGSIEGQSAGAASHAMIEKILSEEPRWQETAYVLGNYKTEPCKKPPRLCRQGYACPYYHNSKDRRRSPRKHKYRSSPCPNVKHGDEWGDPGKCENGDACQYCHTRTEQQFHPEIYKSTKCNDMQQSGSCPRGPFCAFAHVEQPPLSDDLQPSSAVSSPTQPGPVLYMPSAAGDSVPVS
# Technique: RNA Bind-n-Seq
# Form: RNA
# Matrix: in vitro
# Tested at: not given
# Notes: RNA with constant flanks, human and mouse sites, ends assumed
# Baseline: input RNA pool
# Reading: higher = stronger binding
Sequence,bound/input enrichment
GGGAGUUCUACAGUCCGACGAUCUUAGGGUGCUCUUUGAGAGCAUAGUCUUAUAUCUGGGGACUAAAAUGUCAUUAGACCCUAAUAGACCAAGUUAUAUGUUUGUGUAGGAAAAAGGUUUCCUCUCUCGUUCAAGGUAAUUGUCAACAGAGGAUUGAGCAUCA,8.35 ratio
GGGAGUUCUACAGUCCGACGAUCAGGCCAUUGAUGCAUCUUUCCGACUGUAUGUUCUGUGUAUAAUGCUGUUCUUGGUGCUAAAUAGACUUUCUUUCCUCUGAUAUUCAGGAUAAUUUUUCUCUAUACUUCUGUUCACUUGUUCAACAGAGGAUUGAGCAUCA,0.865 ratio
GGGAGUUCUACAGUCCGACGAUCAUAGAACCAAGUAGCAAUAAAGAUGAUGAUUUUCUUGAAAAAAAUGGAGCUGAUGAAAAAUUAGAGCAAAUUCAGAGUAAAGACUCAUUGGAUGAGAAAAAUAAAGCUGAUAAUAAUAUUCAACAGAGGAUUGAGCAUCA,9.01 ratio
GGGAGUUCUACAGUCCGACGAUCCCACAGCAGCUCCUUUGAUAAGUACCAUAUCCUCUGUACUACACACAGCUAAAUUAAUAUUGUUUCAUUUAACCAAACCCCCCCCCCAAAAAAAAGGUUGGCUAUCUCUCUUAAUAUUGCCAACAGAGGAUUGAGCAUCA,0.481 ratio
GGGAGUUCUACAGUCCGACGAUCGGAUUUAAAAGAAGAGAGAGGAGGAAAAAUGAAUUUUGAAAACUUCUAGAGAAUAUAAAUCUAUAAAGGAAUGAAGAAAAGACUUAUUUGGAAAUUAUAAUUUAUAUUUGCCUAAAGGAGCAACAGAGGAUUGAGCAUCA,0.811 ratio
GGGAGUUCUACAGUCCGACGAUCGAAGAAAGCAAUAAGUUCUAUAAGGACAACAUUAAGGCUGGUCAGCAGGGAUUAUCAGUUGCCUUUGAUCUGGCGACACAUCGUGGCUAUGAUUCAGACAACCCUCGAGUUCGUGGUGAUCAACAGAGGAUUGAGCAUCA,0.186 ratio
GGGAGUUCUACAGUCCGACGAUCCCAACGUUAGAAGCAGCCUGGCCUCAUCUGCAGCUUGUUUAUGAAUUUUUCUUAAGAUUUUUAGAGUCUCCAGAUUUCCAACCCAAUAUAGCAAAGAAAUAUAUUGAUCAGAAGUUUGUACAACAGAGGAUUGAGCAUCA,3.07 ratio
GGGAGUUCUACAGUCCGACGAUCCUGUGUCUGCAGGAGCCUGGGGUGUUCCCACAGGAGGUGGCUGACCGGCUUCUUCAGACUAUAGCAUUCCACGGUCUCCUGAAUGAUGGAACUGUGGGAAUUUUCAGAGGUAACCAGAUGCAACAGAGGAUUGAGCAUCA,0.36 ratio
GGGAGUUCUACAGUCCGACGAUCGUUGCAUUUACAACAAGAAUUUAUCACCCAAAUAUUAACAGUAAUGGCAGCAUUUGUCUUGAUAUUCUACGGUCACAGUGGUCUCCAGCACUAACUAUUUCAAAAGUACUUUUGUCCAUCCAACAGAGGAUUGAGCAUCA,0.248 ratio
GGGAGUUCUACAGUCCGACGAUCGAGUUUACGAGGAAACCCGUUGGUUGUUCGUUUUGUUAGAGAUUUAACGUAUGACCCUCCGACUCUUCUGGAAUUAGCUGCAAGGACCAUUAAGAUCCGAAGUAUUUCUUACACUCCCUACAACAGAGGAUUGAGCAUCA,0.641 ratio
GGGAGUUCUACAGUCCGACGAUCGGCUUUGCGCUACUCUUCUACCUUGAACAGCUUCUUGGGGGACCAGAGGUGUUUCUAGGAUUCUUAAAGGCUUAUGUUAAGAAGUUUUCCUACCAAAGUGUAACGACUGAUGACUGGAAGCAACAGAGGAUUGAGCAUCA,0.185 ratio

# Series 2
# Target: RNA binding protein fox-1 homolog 2, RRM domain, GST-SBP tag (RBFOX2, Homo sapiens, UniProt O43251-10, residues 100-194)
# Technique: RNA Bind-n-Seq
# Form: RNA
# Matrix: in vitro
# Tested at: 365 nM
# Notes: natural RNA segment, single round, ends assumed
# Baseline: no-protein control
# Reading: higher = stronger binding
# Construct (chain): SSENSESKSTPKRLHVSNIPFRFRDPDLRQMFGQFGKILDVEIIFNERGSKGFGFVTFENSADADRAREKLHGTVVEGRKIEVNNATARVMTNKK
Sequence,RBNS enrichment (R)
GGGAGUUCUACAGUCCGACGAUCCGGGCUGCAGUGGCGGAAGUGCUGGCGCCAUAGCCACGGUCAGGCUGUGCCCCACCUCCAGCCUCACCACCAGGCCAGGAGGCAGCUGGCACAGUGCUCACGCCGCCUUUUGGAAUUCUCGGGUGCCAA,0.304
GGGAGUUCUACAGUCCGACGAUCCCAGUCUUCACCCCAACCUCAGCUGAUUGUAGUACACCUGCUAGCUCUGUUGCCCCCUCAAAACUGCACCCAGAGCAGGGCCACAAGGGUGCUUUUUUUCUUUAAAAAAAUGGAAUUCUCGGGUGCCAA,0.707
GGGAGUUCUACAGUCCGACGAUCGGCUACUUCCAAGGGCAGCCAGCAGGCCUGGACAGAGGUCUUGAAAGCCCUUGUCUUCUCUUCCCCCCCACCCCACUAGGCCUGGUUAACCUUCCGUUUCCAGCUUCUCCUGGAAUUCUCGGGUGCCAA,0.512
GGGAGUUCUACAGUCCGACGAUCUGAGUUGUCUAAGAUCAGGACUGUUUUGAUAUCUGACCUUGUUAUAUGCGGAGAGUAAAUGCAAAAAUGCUAAGAGUAAUGCAUCAUGUAUUGAAUAUUAAGUGUCACUGUGGAAUUCUCGGGUGCCAA,0.527
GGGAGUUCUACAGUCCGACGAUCUAUUCUGUUCUUUAGUAUAACAGCAAGUAUAAUUAUGCCGAGUCCUGCCAUCAUAAGUAUGGAGUAAGCUAAAGGAUGACCGUUAUGCCCGUGUAGACAUAGUGUACUCAUGGAAUUCUCGGGUGCCAA,0.427
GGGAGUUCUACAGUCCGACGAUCAGGAAGCUUGGGUUUGAAGCCUGCCCAGACUGGGCUGGGAGUGUUCUCAGAGUCUCAACACAGGAACGGAGUCUUCGGCUAUCAUGGACUAGGCUGAGGCUAGUGCUGGUUGGAAUUCUCGGGUGCCAA,1.14
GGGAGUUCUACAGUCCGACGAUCAUUCAUUUGACUCAGCUGAUUGUGUCACAUCUUUUAAAUACUGGUAAAUAUGGAUAUACCAAGUAUUUAAUGACUAAUGCACAUAGAAAUUAAUAUUAAUACAGUGAUCUUGGAAUUCUCGGGUGCCAA,0.464
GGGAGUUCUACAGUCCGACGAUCCCCUUCGCCUCUACUGCGAGGCCUGGGGAGAUGUUGUUUUCAUGCUGCUUCCACCAUCACACUGGGGUUUCUGGAUGGGAAAUAAAAAAAUAAAGGCAGUUCAUUUCCCCUGGAAUUCUCGGGUGCCAA,0.27
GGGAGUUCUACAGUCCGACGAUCAUGCAGUCCUCCCCUCCCUGGUCUCCUGCUUCAGCUCUGUACAACGAGGGCAAAGAUGCUAAAUCUUGCUUUGCAUUCAGUAAAGUGUCAAGUGAUUAAGUGUGUAUUUGUGGAAUUCUCGGGUGCCAA,0.232
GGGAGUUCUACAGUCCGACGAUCGCUACGGUUCUUAAUACUGAAGUCAUGAUGUGUAUUUCCUGGAGAAAUUCCUCUUUAAAUGAACAAGUAACCACAUCUCAGGCGGCAGUGAAGUCCAGAUAGUUUUGCAGUGGAAUUCUCGGGUGCCAA,1.91
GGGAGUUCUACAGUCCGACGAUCCUGCCCUCGCUGCAGACAGCAGCCGGAGGCUAUUUUGUAGUGCAGAGAUGACUCACUCACUCCGUGUGUUCUACAGUGCUGAGGUGGAUGACCUGGCCUACAGCAAAGGAUGGAAUUCUCGGGUGCCAA,0.406
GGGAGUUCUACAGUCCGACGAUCAAUCCUAUGUCAGCUCUCUUAGGAAGCCCCAGUACUUAUAUUGGGCAUGCACUUGCCCUUAAAAACAAUGAUUUGUGAGUCCAGGAACAAUUUACUAUUUUUAAAAUAUUUGGAAUUCUCGGGUGCCAA,0.834

# Series 3
# Target: ABI1, truncated, D143A, DHFR fusion (Arabidopsis thaliana)
# Technique: DHFR PCA, deep sequencing
# Matrix: yeast
# Notes: methotrexate growth selection, single substitutions
# With: (+)-ABA 58 µM
# Baseline: wild-type fitted maximum
# Reading: higher = stronger binding
# Starting sequence: PYL1, truncated, DHFR fusion (Arabidopsis thaliana); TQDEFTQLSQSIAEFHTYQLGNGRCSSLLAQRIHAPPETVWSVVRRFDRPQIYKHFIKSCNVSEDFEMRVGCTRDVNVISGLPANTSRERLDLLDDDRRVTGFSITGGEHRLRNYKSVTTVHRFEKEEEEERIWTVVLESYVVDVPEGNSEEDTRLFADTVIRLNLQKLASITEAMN
Change,relative binding score
R90Y,20.2%
I52P,15.8%
Q51N,53.6%
L29Q,64.4%
Q31S,25.8%
E109D,113%
R155S,58.5%
V118Q,51.8%
V145R,44.1%
G81F,-22.2%
S87K,-10.4%
A158K,-4.64%
L29I,81.9%
T73G,49.9%
V118M,83.1%
D144K,46%
V40W,1.12%
S104W,-4.68%
D3L,83.4%
D3N,78.3%
T106P,5.14%
S87E,6.63%
V121T,23.5%
N114V,0.971%

# Series 4
# Target: CCNE1, cyclin fold, Cln2 fusion (human)
# Technique: yeast growth competition, sequencing
# Matrix: yeast
# Notes: strong parent motif
# Baseline: not given
# Reading: higher = stronger binding
# Starting sequence: GMNC docking peptide (human); KNAKRNLSSEFAN
Change,normalised enrichment score
E10M,0.661
E10L,0.0867
S8G,0.719
N2R,1.22
N6M,0.169
S9H,1.73
A12C,1.45
E10S,0.35
N6C,0.224
F11H,-0.209
N2H,0.986
A3W,0.821
A12D,2.33

# Series 5
# Target: UBE2O UBC core domain (UniProt Q9C0C9)
# Technique: yeast two-hybrid
# Matrix: yeast
# Notes: mostly zero background
# Baseline: not given
# Reading: higher = stronger interaction
# B1: ZNF598 RING domain (UniProt Q86UK7); chain AAAPERGGGSCVLCCGDLEATALGRCDHPVCYRCSTKMRVLCEQRYCAVCREELRQVVFGK
# B2: PHF21A RING domain (UniProt Q96BD5); chain SPTSTDGDIHEDFCSVCRKSGQLLMCDTCSRVYHLDCLDPPLKTIPKGMWICPRCQDQMLKKEEAIPW
# B3: TRIM63 RING domain (UniProt Q969Q1); chain PMENLEKQLICPICLEMFTKPVVILPCQHNLCRKCANDIFQAANPYWTSRGSSVSMSGGRFRCPTCRHEVIMDRHGV
# B4: TRIM8 RING domain (UniProt Q9BZR9); chain WKNCFEEELICPICLHVFVEPVQLPCKHNFCRGCIGEAWAKDSGLVRCPECNQAYNQKPGLE
# Residues (chain): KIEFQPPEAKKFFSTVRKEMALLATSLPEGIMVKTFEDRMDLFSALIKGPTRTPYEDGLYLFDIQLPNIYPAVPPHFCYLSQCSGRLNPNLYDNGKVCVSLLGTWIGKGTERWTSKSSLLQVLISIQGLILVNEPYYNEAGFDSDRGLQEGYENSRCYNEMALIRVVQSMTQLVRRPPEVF
Molecule,lacZ reporter activity
QLRRLQEERTCKVCMDKEVSIVFIPCGHLVVCKDCAPSLRKCPICRSTIKGTVRTF (BIRC3 RING domain (UniProt Q13489)),0
QLRRLQEERTCKVCMDKEVSVVFIPCGHLVVCQECAPSLRKCPICRGIIKGTVRTF (BIRC2 RING domain (UniProt Q13490)),0
B1 (ZNF598 RING domain),0
QLQDIKEQTMCPVCLDRLKNMIFLCGHGTCQLCGDRMSECPICRKAIERRILLY (MIB1 RING domain (UniProt Q86YT6)),0
FPEHFVKSISCQICEHILADPVETNCKHVFCRVCILRCLKVMGSYCPSCRYPCFPTDLES (RAG1 RING domain (UniProt P15918)),0
QHHELTSLFECPVCFDYVLPPILQCQAGHLVCNQCRQKLSCCPTCRGALTPSIRNL (SIAH2 RING domain (UniProt O43255)),0
B2 (PHF21A RING domain),0
KTLSRFGIQPCSICLGDAKDPVCLPCDHVHCLRCLRAWFASEQMICPYCLTALPDEFSPA (RNF213 RING domain (UniProt Q63HN8)),0
B3 (TRIM63 RING domain),0
VTLSLTLPITCHICLGKVRQPVICINNHVFCSICIDLWLKNNSQCPACRVPITPENPCK (OBI1 RING domain (UniProt Q5W0B1)),0
B4 (TRIM8 RING domain),0

# Some of these lines once more (series 5):
Molecule,lacZ reporter activity
KTLSRFGIQPCSICLGDAKDPVCLPCDHVHCLRCLRAWFASEQMICPYCLTALPDEFSPA (RNF213 RING domain (UniProt Q63HN8)),0
B1 (ZNF598 RING domain),0
QLRRLQEERTCKVCMDKEVSVVFIPCGHLVVCQECAPSLRKCPICRGIIKGTVRTF (BIRC2 RING domain (UniProt Q13490)),0
B4 (TRIM8 RING domain),0
QHHELTSLFECPVCFDYVLPPILQCQAGHLVCNQCRQKLSCCPTCRGALTPSIRNL (SIAH2 RING domain (UniProt O43255)),0
